Assay results gathered from unrelated publications.
Each line is one published result; not all experiments were run side by side. Values joined by “and” are separate records of one study, mostly repeats; a detail may differ. Numbers after ± are the reported error.

Molecule | assay | test system | setting | how to read | endpoint | value
CCCCCCCCCCCCCNCC(=O)N(CC(=O)N(CCCCN)CC(=O)N(CCN)CC(=O)N(CC(N)=O)CC(C)C)CC(C)C | preparative RP-HPLC C18 | water to acetonitrile gradient | 0.05% TFA in eluent | higher = more hydrophobic | acetonitrile at elution | 68.1%
Cn1cc(-c2cc(N3CCCS3(=O)=O)ccc2Oc2ccc(F)cc2F)c2c(F)c[nH]c2c1=O | – | Sprague-Dawley rat, plasma | oral vs intravenous, 3 mg/kg oral, 1 mg/kg i.v. | – | oral bioavailability | 30.9%
CN[C@@H]1[C@H](O)[C@H](NC)[C@H]2O[C@]3(O)[C@H](O[C@@H]2[C@H]1O)O[C@H](C)C[C@H]3NC(=O)Cc1cc(Cl)c(OC)cn1 | glutathione conjugation | rat liver S9 | 100 µM, 2 h, pH 7.4, added: glutathione 0.2 mM | – | parent remaining | 81.1%
O=C1Nc2ccccc2C(=O)CCc2cc(O)ccc21 | nephelometry | aqueous buffer | 30 min, pH 6.5 | – | kinetic solubility | 25 to 50 µg/mL
CC(=O)Nc1ccc(O)cc1 | – | healthy volunteers, both sexes, plasma | oral, dose not given, day 2, added: favipiravir, acute | – | AUC(0-12 h) | 36500 ng·h/mL
Cc1nc(-c2ccc(OCC(C)C)c(C#N)c2)sc1C(=O)O | – | adults with gout, plasma | oral, 80 mg, added: verinurad 5 mg | – | AUC(0-24) | 5190 ng·h/mL
C[C@]12CC[C@@H]3c4ccc(O)cc4CC[C@H]3[C@@H]1C[C@@H](O)[C@@H]2O | GC-MS | breast cancer women on NSAI, serum | vaginal, 0.03 mg, 8 h, day 0 | – | minimum serum concentration | 0 ng/mL
CS(=O)(=O)c1cnc(NS(=O)(=O)c2ccc(N)cc2)nc1.Cl | – | PBS | 2 h, pH 7.4, 25 °C | – | kinetic solubility | 391 µM
CCCOc1ccc([C@H]2CNC(=O)N2c2ccc3[nH]cnc3c2)cc1 | – | human volunteers fasted, plasma | oral solution, 10 mg single dose, day 1, geometric mean | – | AUC(0-tlast) | 61 ng·h/mL
CCN1C(=O)CNc2ncc(-c3ccc(-c4nc[nH]n4)nc3C)nc21 | – | human, plasma | oral, 40 mg once daily, multiple doses | – | AUC(0-12h) | 1730 ng·h/mL
CC(C)NC[C@@H](C(=O)N1CCN(c2ncnc3c2[C@H](C)C[C@H]3O)CC1)c1ccc(Cl)cc1 | – | human, Healthy hepatic function, plasma | oral, 100 mg single dose, NCI classification, geometric mean | – | AUC(0-∞) | 337 ng·h/mL
CCc1oc2cc(OC)ccc2c1C(=O)c1cc(Br)c(O)c(Br)c1 | – | Sprague-Dawley rat, intestine microsomes | 1 µM, pH 7.4, added: NADPH | – | intrinsic clearance | 27.3 ± 5.7 µL/min/mg
O=C(/C=C/c1ccc(O)c2c1[C@H](C(=O)O)[C@@H](c1ccc(O)c(O)c1)O2)O[C@H](Cc1ccc(O)c(O)c1)C(=O)O | UPLC-MS/MS | Wistar rat, microcirculation dysfunction model, plasma | oral, 100 mg/kg Salvia miltiorrhiza stem-leaf extract FT | – | MRT(0-inf) | 10.7 ± 9.75 h
O=C(O)[C@H](c1ccccc1Cl)N1CCc2sccc2C1 | HPLC-MS/MS | feline citrate plasma | 12 h, 4 °C, storage stability | – | deviation from nominal | 13%
CS(=O)(=O)OC[C@H](O)[C@@H](O)COS(C)(=O)=O | – | Wistar rat, female, red blood cells and plasma | intraperitoneal, 500 mg/kg, 4 h | – | RBC/plasma partition coefficient | 0.79 and 0.8 and 0.85
O=C(O)Cc1ccccc1Nc1c(Cl)cccc1Cl | – | rat, plasma | oral, 10 mg/kg, added: sesamin 100 mg/kg | – | AUC(0-24 h) | 6420 ± 3780 ng·h/mL
S=C(NCCCc1c[nH]cn1)NCCCN(Cc1ccc(Cl)c(Cl)c1)c1ccc(Br)cn1 | – | male C57BL/6 mice, plasma | intraperitoneal, 30 mg/kg, 0.083 h | – | plasma concentration | 1820 ng/mL
CCc1nc(C(N)=O)c(Nc2ccc(N3CCC(N4CCN(C)CC4)CC3)c(OC)c2)nc1NC1CCOCC1 | – | human, advanced solid tumours | oral, 120 mg, 14C mass balance, from excretion | – | oral bioavailability | > 61.2%
CC[C@H](C)[C@@H]1NC(=O)[C@H](Cc2ccc(O)cc2)NC(=O)[C@@H](N)CSSC[C@@H](C(=O)N2CCC[C@H]2C(=O)N[C@@H](CC(C)C)C(=O)NCC(N)=O)NC(=O)[C@H](CC(N)=O)NC(=O)[C@H](CCC(N)=O)NC1=O | LC-MS | human urine | 9.9 to 385 ng/mL, immediately after addition, attributed to MS signal suppression | – | level decrease after spiking | 50 to 80%
CCCCCCCCCCCCCCCCCCOP(=O)([O-])OC1CC[N+](C)(C)CC1 | – | rhesus monkey, male, cerebrospinal fluid | oral, 7 mg/kg, single dose, mean of 3 | – | terminal half-life | 258 h
C=CC(=O)Nc1cc(Nc2nccc(-c3cn(C)c4ccccc34)n2)c(OC)cc1N(C)CCN(C)C | – | Sprague-Dawley rat, male, plasma | oral, 10 mg/kg, added: avitinib 30 mg/kg single dose on day 7 | – | MRT(0-t) | 10.6 ± 0.71 h
CC(O)c1cc(C(=O)N[C@@H](C)Cn2ccc(-c3ccc(C#N)c(Cl)c3)n2)[nH]n1 (some centres unmarked) | – | human, male, plasma | oral, 600 mg twice daily, day 7, with food, multiple doses | – | AUC(0-12) | 28800 ng·h/mL
C[C@]1(c2nc3c(C(N)=O)cccc3[nH]2)CCCN1 | – | human patients, plasma | oral, 20 mg, day -2, cycle 1 | – | AUC(0-12h) | 680 ng·h/mL
COc1cccc(N2CCN(C3=Nc4c(F)cccc4[C@H](CC(=O)O)N3c3cc(C(F)(F)F)ccc3OC)CC2)c1 | UHPLC-MS/MS | healthy women, plasma | intravenous infusion, 240 mg single dose, 30 min infusion, HPβCD formulation | – | elimination rate constant | 1.83e-05 ± 2.7e-06 s⁻¹
C/C=C/C[C@@H](C)C(=O)[C@H]1C(=O)N[C@@H](C(C)C)C(=O)N(C)CC(=O)N(C)[C@@H](CC(C)C)C(=O)N[C@@H](C(C)C)C(=O)N(C)[C@@H](CC(C)C)C(=O)N[C@@H](C)C(=O)N[C@H](C)C(=O)N(C)[C@@H](CC(C)C)C(=O)N(C)[C@@H](CC(C)C)C(=O)N(C)[C@@H](C(C)C)C(=O)N1C | – | Sprague Dawley rat, plasma | intravenous infusion, 0.9 mg/h/kg, 4 h, minimal efficacious dose | – | free steady-state plasma concentration | 245 nM

Molecule | assay | test system | setting | how to read | endpoint | value
CCCC[C@H](NC(C)=O)C(=O)N[C@H]1CCC(=O)NC[C@@H](C(=O)N[C@@H](Cc2c[nH]c3ccccc23)C(N)=O)NC(=O)[C@H](CCCNC(=N)N)NC(=O)[C@@H](Cc2ccccc2)NC(=O)[C@H](Cc2c[nH]cn2)NC1=O | – | female rat, plasma | subcutaneous, 5 mg/kg/day, multiple doses, once daily | – | Vd/F | 15.6 L/kg
O=C1N=C(N2CCOCC2)CN1c1ccc(Cl)cc1 | – | beagle dog, male, plasma | oral, 30 mg/kg, tablets, fasted | – | AUC(0-inf) | 88300 ng·h/mL
Cc1nc2cccc(OCC(C)(C)C(=O)NC(C)C)c2c(N)c1C(=O)O | – | female Sprague-Dawley rat, plasma | oral gavage, 10 mg/kg, day 1 | – | Tmax | 0.25 h
O=C1NC(=O)[C@@H](c2cn3c4c(cccc24)CCC3)[C@@H]1c1c[nH]c2ccccc12 | – | human, plasma | oral, 240 mg, steady state, added: topotecan intravenous | – | AUC(0-12h) | 8910 ng·h/mL
C=CC(=C)CC[C@]1(C)[C@H](C)C[C@H](OC)[C@@]23C(=C[C@H](OC(=O)C(C)C)C[C@@H]12)[C@@H](OC(C)=O)O[C@H]3OC(C)=O | haemolysis | – | 20 µM | – | haemolysis | 14.4%
CC#CCn1c(N2CCC[C@@H](N)C2)nc2c1c(=O)n(Cc1nc(C)c3ccccc3n1)c(=O)n2C | – | male ICR mouse, kidney | oral, 3 mg/kg, 24 h | – | AUC | 25300 ng·h/mL
CCCCCCCCC[C@H](O)CC(=O)CCc1ccc(O)c(OC)c1 | – | human ileostomy patients, ileal effluent | oral, 5 g TU-100, 4 h, no β-glucuronidase treatment | – | amount recovered, maximum | 2040 ng
COc1cccc(CCc2ccccc2OCC(CN(C)C)OC(=O)CCC(=O)O)c1 (racemic) | – | human liver microsomes | 400 nM, pH 7.4, added: NADPH | – | CLint | 36.9 ± 5.2 µL/min/mg
CO/N=C1\C[C@]2(C[C@@H]3C[C@@H](C/C=C(\C)C[C@@H](C)/C=C/C=C4\CO[C@@H]5[C@H](O)C(C)=C[C@@H](C(=O)O3)[C@]45O)O2)O[C@H](/C(C)=C/C(C)C)[C@H]1C | HPLC, non-compartmental | Corriedale lambs, parasitized, plasma | subcutaneous, 0.2 mg/kg | – | elimination half-life | 134 h
COc1ccc(C2=Nn3c(nnc3-c3cc(-c4ccc(Cl)cc4)n[nH]3)SC2C)cc1 (centres unmarked) | – | 10% Solutol HS15 in water | – | – | maximum solubility | 400 µg/mL
O=S(=O)(c1ccc(F)cc1)c1cc(F)c(O)c2ncccc12 | – | rat Sprague-Dawley male, brain | oral, 10 mg/kg, 4 h | – | free concentration | 7.7 nM
CO[C@H]1C[C@@H]2CC[C@@H](C)[C@@](O)(O2)C(=O)C(=O)N2CCCC[C@H]2C(=O)O[C@H]([C@H](C)C[C@@H]2CC[C@@H](O)[C@H](OC)C2)CC(=O)[C@H](C)/C=C(\C)[C@@H](O)[C@@H](OC)C(=O)[C@H](C)C[C@H](C)/C=C/C=C/C=C/1C | – | NOD/SCID mice, male, blood or plasma | intraperitoneal, 0.5 mg/kg every 48 h, 48 h | – | Cmin | 14.9 ± 2 ng/mL
Cn1c(-c2ccc(C(N)=O)cc2F)nnc1C(C)(C)Oc1c(F)cc(Cl)cc1F | – | young non-Japanese adults, plasma | oral, 20 mg single dose, day 1, high-dose multiple-dose study | – | Tmax range over subjects | 1 to 4 h
Cc1ccc(NC(C)(C)C(=O)Nc2ccc(F)c(Cl)c2)cc1S(=O)(=O)N1CCOCC1 | – | water | – | – | kinetic solubility | 110 µM
CC[C@H](C)C(=O)O[C@H]1C[C@H](O)C=C2C=C[C@H](C)[C@H](CC[C@@H](O)C[C@@H](O)CC(=O)O)[C@H]21 | – | perfused human placental lobule | 50 ng/mL, 4 h, fetal-to-maternal | relative to: initial donor concentration | transfer to maternal circuit | 13 ± 2%
CCN(CC)Cc1cc(Nc2ccnc3cc(Cl)ccc23)ccc1O | – | Wistar rat, male, plasma | oral, 60 mg/kg | – | Vd/F | 49.6 ± 11 L/kg
Cc1c(C(=O)NN2CCCCC2)nn(-c2ccc(Cl)cc2Cl)c1-c1ccc(Cl)cc1 | LC-MS/MS | cynomolgus monkey 5, plasma | intravenous infusion, 0.5 mg/kg, 90 min, total concentration mid-point of PET | – | plasma concentration | 389 nM
colistin methanesulfonate | one-compartment PK model | rat | i.p., 20 mg/kg colistin base activity | – | volume of distribution | 0.199 ± 0.0846 L/kg
N#Cc1ccc2c(c1)CCC(=O)c1ccccc1NC2=O | nephelometry | aqueous buffer | 30 min, pH 6.5 | – | kinetic solubility | 25 to 50 µg/mL
CCCC[C@@H]1NC(=O)[C@@H](NC(=O)[C@H](CCC(=O)O)NC(=O)CNC(=O)CN2CCN(CC(=O)O)CCN(CC(=O)O)CCN(CC(=O)O)CC2)CCCCNC(=O)C[C@@H](C(N)=O)NC(=O)[C@H](C(C)C)NC(=O)[C@@H]2CCCN2C(=O)[C@H](CCCNC(=N)N)NC(=O)CNC(=O)[C@H](Cc2c[nH]c3ccccc23)NC(=O)[C@H](CCCNC(=N)N)NC(=O)[C@@H](Cc2ccccc2)NC(=O)[C@H](Cc2c[nH]cn2)NC(=O)[C@H](CCC(=O)O)NC1=O [indium-111 labelled] | – | normal C57 mice, pancreas | intravenous, 0.037 MBq, 2 h | – | tissue uptake | 0.09 ± 0.07 %ID/g
CS(=O)(=O)Nc1ccc(C(=O)O[C@@H](Cc2c(Cl)c[n+]([O-])cc2Cl)c2ccc(OC(F)F)c(OCC3CC3)c2)cc1OCC1CC1 | – | human, plasma | inhaled, 400 µg single dose, single-dose dry powder inhaler | – | tmax | 2 h
CCCCN1CCCCC1C(=O)Nc1c(C)cccc1C (centres unmarked) | convulsant | wild-type mouse | intravenous, 3.75, 5 and 6.25 mg/kg, 15 s, ≤5 Hz, peak seizure | relative to: baseline | EEG delta power increase | ≥ 7 fold
C[C@@H](c1ncncc1F)[C@](O)(Cn1cncn1)c1ccc(F)cc1F | – | patients, hematological disorders, CYP2C19 poor metabolizers, plasma | 200 mg, 12 h, steady state, median | – | trough concentration | 4310 ng/mL
Oc1ccc(C(c2ccc(O)cc2)(C(F)(F)F)C(F)(F)F)cc1 | measured: free compound | Hsd:Sprague Dawley rat male, plasma | oral gavage, 340 mg/kg single dose | – | elimination (k10) half-life | 2.33 h
COc1cc(Nc2ncc3c(n2)-c2ccc(Cl)cc2C(c2c(F)cccc2OC)=NC3)ccc1C(=O)O | – | children, plasma | oral, 80 mg/m2 once daily, day 4 of cycle 1, median | – | trough concentration | 1300 nM
